Results pooled from the literature.
Numbered parts are unrelated; each lists some results of a single study. Substitutions count along the parent as printed.

Set 1 — method: DHFR PCA, deep sequencing; medium: yeast; with: (+)-ABA 1.4 µM; reference: wild-type fitted maximum; direction: higher = stronger binding; quantity: relative binding score
Target: ABI1, truncated, D143A, DHFR fusion (Arabidopsis thaliana)
Notes: methotrexate growth selection, single substitutions
Starting sequence: PYL1, truncated, DHFR fusion (Arabidopsis thaliana); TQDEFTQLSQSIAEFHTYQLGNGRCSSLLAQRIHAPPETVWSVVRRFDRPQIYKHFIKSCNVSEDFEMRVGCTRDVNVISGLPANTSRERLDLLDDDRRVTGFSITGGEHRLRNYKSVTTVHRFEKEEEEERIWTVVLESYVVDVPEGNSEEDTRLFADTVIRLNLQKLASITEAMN
I172R: -10.2%
G71H: -1.36%
D95S: -1.75%
A13C: 13.8%
L164M: 71.4%
E152W: 21.4%
K54C: -6.64%
N77H: 73.2%
H122I: -6.01%
F5Q: 48.6%
P37M: 2.23%

Set 2 — target: CCNB2, cyclin fold, Cln2 fusion (human); method: yeast growth competition, sequencing; medium: yeast; notes: weak parent motif; reference: not given; direction: higher = stronger binding; quantity: normalised enrichment score
Starting sequence: PKN2 docking peptide (human); VSAVQKLDFSDTM
VSAVQKLDFSDTW [M13W]: 0.33
VSLVQKLDFSDTM [A3L]: 1.08
VSAVQKDDFSDTM [L7D]: -0.305
VSAVQKLDFSDGM [T12G]: 0.518
VSAVQKLHFSDTM [D8H]: -0.224
HSAVQKLDFSDTM [V1H]: 0.0552
VSAVQKLDISDTM [F9I]: -0.127
VSATQKLDFSDTM [V4T]: -0.299
VRAVQKLDFSDTM [S2R]: 0.1
ESAVQKLDFSDTM [V1E]: 0.078
VSAVQKLDFSDTV [M13V]: 0.196
VSAVQKLDFSDTN [M13N]: 0.183
VSAVQKLSFSDTM [D8S]: -0.00801
VSAVQKLDFSDMM [T12M]: -0.305
VSAVQKLDDSDTM [F9D]: -0.244
VSAVQKLDFCDTM [S10C]: -0.103
VLAVQKLDFSDTM [S2L]: -0.0264
VSAVQLLDFSDTM [K6L]: -0.535
VGAVQKLDFSDTM [S2G]: -0.181
VSAVQKLDFSDKM [T12K]: -0.263
VSAVQKLDFSDNM [T12N]: -0.0459
VSAVQKLDMSDTM [F9M]: -0.409
VSAVQKLDFTDTM [S10T]: -0.0294
VSAVQKLDFSFTM [D11F]: -0.365
VSRVQKLDFSDTM [A3R]: -0.253

Set 3 — method: RNA Bind-n-Seq; form: RNA; medium: in vitro; tested at: 200 nM; notes: whole 134-nt RNA, ends assumed; with: 150 mM KCl; reference: input library; direction: higher = stronger binding; quantity: log2 enrichment
Target: Ras GTPase-activating protein-binding protein 1, full length (G3BP1, Homo sapiens, UniProt Q13283)
UniProt Q13283, sequence (whole entry, looked up): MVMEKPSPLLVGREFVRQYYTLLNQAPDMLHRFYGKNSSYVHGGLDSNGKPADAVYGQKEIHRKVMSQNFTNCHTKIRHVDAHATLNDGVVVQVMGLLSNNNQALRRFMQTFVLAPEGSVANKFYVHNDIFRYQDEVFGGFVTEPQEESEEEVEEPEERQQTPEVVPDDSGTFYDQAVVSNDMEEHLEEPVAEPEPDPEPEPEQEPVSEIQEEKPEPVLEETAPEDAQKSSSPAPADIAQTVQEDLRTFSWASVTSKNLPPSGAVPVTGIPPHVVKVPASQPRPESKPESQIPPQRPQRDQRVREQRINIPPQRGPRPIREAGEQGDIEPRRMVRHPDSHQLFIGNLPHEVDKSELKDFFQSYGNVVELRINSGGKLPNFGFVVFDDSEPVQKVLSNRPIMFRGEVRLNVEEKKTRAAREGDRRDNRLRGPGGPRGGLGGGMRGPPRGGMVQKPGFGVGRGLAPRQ
Constant ends, left off below: GGGAGUUCUACAGUCCGACGAUC … UGGAAUUCUCGGGUGUCAAGG
GCAGGAAGUAAAAACAAAUGGAAAUGCUUCGGAUAGUGGCAGGGGUGGGGGCUGCUAAGGAAAGGGUGGGAUGGGAGUGGGUAAAGAGUU: 1.18
UAACUUUAGAGGAGGAUCUGAUGGAUAUGGCAGUGGACGUGGAUUUGGGGAUGGCUAUAAUGGGUAUGGAGGCGGACCUGGAGGUGGCAA: 0.254
CAGAGACAACACGCACCCACACAGACACAGAGGGAAGGGGUUGGGAUGGGGACAGGGUGCACAGCAGGGCGGGGUAGGACCCCAGCCCCU: 1.85
CCUGUGCUACACAUCGUAUGUACCGAAUCGGGUUUUUUGGGUUUUUUGGGUUUUUUGGGGAAAGUAUUAUGUUACGCCGUUCGGAUCUGC: -0.772
CAAGUCCUGUGCUACACAUCGUAUGUACCGAAUCGGGCCCGGGGCCCGGGCCCGGAAAGUAUUAUGUUACGCCGUUCGGAUCUGCACUUC: 0.113
CCUCAAGUCCUGUGCUACACAUCGUAUGUACCGAAUCGGGGUGGUGGGUGGGAAAGUAUUAUGUUACGCCGUUCGGAUCUGCACUUCCAG: 1.14
CCUCAAGUCCUGUGCUACACAUCGUAUGUACCGAAUCGGGAGGGGAGGGAGGGAAAGUAUUAUGUUACGCCGUUCGGAUCUGCACUUCCA: 1.53
CCUGUGCUACACAUCGUAUGUACCGAAUCGGGAAAAAAAGGAAAAAAAGGGGAAAAAAAGGAAAGUAUUAUGUUACGCCGUUCGGAUCUG: -0.878
GUCCUGUGCUACACAUCGUAUGUACCGAAUCGGGGAAAAAGGGGUUUUUGGGGUGGGGAAAGUAUUAUGUUACGCCGUUCGGAUCUGCAC: 0.349
UGUCUGCGGACCUGGUUUCAGCGCUGGUGGGACUGCAGCCGGAGGUCAGCCCAGCAGAGACUGCAGCUGGAGAGGGCAGUGCAACACCAC: -1.09
UCCUGUGCUACACAUCGUAUGUACCGAAUCGGGUUUUUUUGGGUUUUUUUGGGUUUGGGAAAGUAUUAUGUUACGCCGUUCGGAUCUGCA: -0.335
AGUCCUGUGCUACACAUCGUAUGUACCGAAUCGGGAAAAAAAGGGUGGGUUUUUGGGAAAGUAUUAUGUUACGCCGUUCGGAUCUGCACU: -0.243
GCAGGAAGUAAAAACAAAUGGAAAUGCUUCGGAUAGUGUCAGGGGUGGGGGUUGCUAAGGAAAGGGUGGGAUGGGAGUGGGUAAAGAGUU: 1.11
AAGUCCUGUGCUACACAUCGUAUGUACCGAAUCGGAAAAAGGGAAAAAGGAAAAAGGAAAGUAUUAUGUUACGCCGUUCGGAUCUGCACU: -1.02

Set 4 — method: protein-binding microarray; form: double-stranded DNA, one strand shown; medium: in vitro; tested at: not given; direction: higher = stronger binding; quantity: E-score
Target: Protein C-ets-1 (ETS1, Homo sapiens, UniProt P14921, residues 1-441, Y397A, full length assumed)
UniProt P14921, sequence (whole entry, unmodified, looked up): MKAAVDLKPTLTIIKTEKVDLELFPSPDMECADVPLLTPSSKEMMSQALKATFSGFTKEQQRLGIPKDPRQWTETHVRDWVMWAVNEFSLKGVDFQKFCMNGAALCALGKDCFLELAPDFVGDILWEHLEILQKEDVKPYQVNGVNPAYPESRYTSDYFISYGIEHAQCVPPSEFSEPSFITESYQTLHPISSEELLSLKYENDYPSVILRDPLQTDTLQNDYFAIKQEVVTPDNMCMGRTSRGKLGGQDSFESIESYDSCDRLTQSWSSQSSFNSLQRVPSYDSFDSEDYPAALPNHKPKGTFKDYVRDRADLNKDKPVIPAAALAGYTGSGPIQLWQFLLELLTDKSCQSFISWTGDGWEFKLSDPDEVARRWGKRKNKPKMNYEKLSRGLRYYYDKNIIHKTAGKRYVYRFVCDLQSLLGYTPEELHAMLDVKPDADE
Notes: k-mer, scored over probes, only values ≥0.25
GGAAGTGA: 0.418
ACGGATGC: 0.3
ACCCGCGC: 0.285
GGACAAAA: 0.28
ACGTGACA: 0.262
TGCGCACA: 0.321
GATTGCCA: 0.356
ATAATTGC: 0.27
ACGGAAGT: 0.404
CATCCGGG: 0.282
GTGTACAA: 0.3
CCGCAAAA: 0.308
GCCTCCCC: 0.256
ACAATTGT: 0.342
AGTTGTCA: 0.259
ACGGACAA: 0.305
CGGATGCC: 0.288
CGGTTTGC: 0.31
